Published values from different studies.
“And” joins repeats or separate records; there may be more than shown. ± gives the spread as reported.

SMILES | test | test system | conditions | scale | measurement | result
CC[C@H](C)[C@H](NC(=O)[C@H](CCCCN)NC(=O)[C@H](CCCCN)NC(=O)CNC(=O)[C@H](CCCCN)NC(=O)[C@H](CC(C)C)NC(=O)[C@H](CCCCN)NC(=O)[C@H](CCCNC(=N)N)NC(=O)[C@@H](NC(=O)[C@H](CC(C)C)NC(=O)[C@H](CCCNC(=N)N)NC(=O)[C@@H](N)CCCNC(=N)N)[C@@H](C)CC)C(=O)N[C@@H](Cc1ccc(O)cc1)C(=O)N[C@@H](CC(C)C)C(=O)N[C@@H](Cc1ccc(O)cc1)C(=O)N[C@@H](Cc1ccccc1)C(=O)N[C@@H](CCCCN)C(=O)N[C@@H](CC(C)C)C(=O)N[C@@H](CCC(N)=O)C(=O)N[C@@H](CC(C)C)C(=O)N[C@@H](CC(C)C)C(=O)N[C@@H](CCCCN)C(=O)N[C@@H](CCCCN)C(N)=O | LC-MS | 25% human serum | 200 µM, 24 h, 37 °C |  | remaining intact peptide | 83 ± 4%
CC(C)C[C@@H]1NC(=O)CNC(=O)[C@H](CC(N)=O)NC(=O)[C@H](CCCNC(=N)N)NC(=O)[C@H]([C@@H](C)O)NC(=O)[C@@H]2CSSC[C@@H]3NC(=O)[C@H]([C@@H](C)O)NC(=O)CNC(=O)CNC(=O)[C@H](C(C)C)NC(=O)[C@@H]4CSSC[C@H](NC(=O)[C@H]([C@@H](C)O)NC(=O)[C@H](CSSC[C@H](NC(=O)[C@H](C(C)C)NC(=O)[C@@H]5CCCN5C1=O)C(=O)NCC(=O)N[C@@H](CCC(=O)O)C(=O)N[C@@H](CCCCN)C(=O)N4)NC(=O)CNC(=O)[C@@H]1CCCN1C(=O)[C@H]([C@@H](C)O)NC(=O)[C@H](CC(N)=O)NC3=O)C(=O)N[C@@H](CO)C(=O)N[C@@H](Cc1c[nH]c3ccccc13)C(=O)N1CCC[C@H]1C(=O)N[C@@H](C(C)C)C(=O)N2 | HPLC | water | 180 µM, 14 days, 37 °C, deamidation stability |  | remaining peptide | 99.1 ± 0.7%
NNc1ccccc1 |  | PBS | 2.5 h, 37 °C | baseline: initial amount | remaining fraction | 0.65 and 0.62 and 0.72
CC(C)C[C@@H]1NC(=O)CNC(=O)[C@H](CC(N)=O)NC(=O)[C@H](CCCNC(=N)N)NC(=O)[C@H]([C@@H](C)O)NC(=O)[C@@H]2CSSC[C@@H]3NC(=O)[C@H]([C@@H](C)O)NC(=O)CNC(=O)CNC(=O)[C@H](C(C)C)NC(=O)[C@@H]4CSSC[C@H](NC(=O)[C@H]([C@@H](C)O)NC(=O)[C@H](CSSC[C@H](NC(=O)[C@H](C(C)C)NC(=O)[C@@H]5CCCN5C1=O)C(=O)NCC(=O)N[C@@H](CCC(=O)O)C(=O)N[C@@H]([C@@H](C)O)C(=O)N4)NC(=O)CNC(=O)[C@@H]1CCCN1C(=O)[C@H]([C@@H](C)O)NC(=O)[C@H](CC(N)=O)NC3=O)C(=O)N[C@@H](CO)C(=O)N[C@@H](CCCCN)C(=O)N1CCC[C@H]1C(=O)N[C@@H](C(C)C)C(=O)N2 | HPLC | ammonium bicarbonate | 180 µM, 7 days, pH 9.0, 25 °C, deamidation stability |  | remaining peptide | 94 ± 0.7%
CSCC[C@H](NC(=O)[C@H](CCCCN)NC(=O)[C@H](CCCNC(=N)N)NC(=O)[C@H](CO)NC(=O)[C@H](Cc1c[nH]c2ccccc12)NC(=O)[C@H](CCCNC(=N)N)NC(=O)[C@H](CC(C)C)NC(=O)[C@H](CO)NC(C)=O)C(=O)N1CCC[C@H]1C(=O)N[C@@H](CS)C(=O)N[C@H](C(=O)N[C@@H](CO)C(N)=O)C(C)C | 12G5 competition, SUP-T1 cells | human plasma | concentration not given, 8 h |  | remaining activity | 76 ± 11%
CC(C)C[C@@H]1NC(=O)CNC(=O)[C@H](CC(N)=O)NC(=O)[C@H](CCCNC(=N)N)NC(=O)[C@H]([C@@H](C)O)NC(=O)[C@@H]2CSSC[C@@H]3NC(=O)[C@H]([C@@H](C)O)NC(=O)CNC(=O)CNC(=O)[C@H](C(C)C)NC(=O)[C@@H]4CSSC[C@H](NC(=O)[C@H]([C@@H](C)O)NC(=O)[C@H](CSSC[C@H](NC(=O)[C@H](C(C)C)NC(=O)[C@H](CCCCN)NC1=O)C(=O)NCC(=O)N[C@@H](CCC(=O)O)C(=O)N[C@@H]([C@@H](C)O)C(=O)N4)NC(=O)CNC(=O)[C@@H]1CCCN1C(=O)[C@H]([C@@H](C)O)NC(=O)[C@H](CC(N)=O)NC3=O)C(=O)N[C@@H](CO)C(=O)N[C@@H](Cc1c[nH]c3ccccc13)C(=O)N1CCC[C@H]1C(=O)N[C@@H](C(C)C)C(=O)N2 | HPLC | ammonium bicarbonate | 180 µM, 14 days, pH 9.0, 25 °C, deamidation stability |  | remaining peptide | 8.9 ± 0.5%
CC[C@@H](C)[C@@H](NC(=O)[C@@H](Cc1ccc(O)cc1)NC(=O)[C@H]1CCCN1C(=O)[C@@H](CCCNC(=N)N)NC(=O)[C@H](N)Cc1c[nH]cn1)C(=O)N[C@H](C)C(=O)N[C@H](Cc1c[nH]cn1)C(=O)N[C@H](CCCNC(=N)N)C(=O)N[C@@H](C(=O)N[C@H](Cc1ccc(O)cc1)C(=O)N[C@H](CO)C(=O)N[C@H](Cc1ccccc1)C(N)=O)C(C)C |  | 10% human serum | 0.5 h |  | remaining compound | 105% and 106%
CC(C)=CCC[C@](C)(O[C@@H]1O[C@H](CO)[C@@H](O)[C@H](O)[C@H]1O)[C@H]1CC[C@]2(C)[C@@H]1[C@H](O)C[C@@H]1[C@@]3(C)CC[C@H](O)C(C)(C)[C@@H]3CC[C@]12C |  | rat plasma | 25 ng/mL, 24 h, room temperature |  | remaining amount | 100.1 ± 0.5%
COc1ccc(C(=O)OCOP(=O)(CC/C=C(\C)COC(C)=O)Oc2ccc(C(C)C)cc2)cc1 (stereo not drawn) |  | 50% Sprague-Dawley rat plasma | 100 µM, 2 h, pH 7.5, 37 °C |  | remaining compound | 0.51%
CC(C)C[C@@H]1NC(=O)CNC(=O)[C@H](CC(N)=O)NC(=O)[C@H](CCCNC(=N)N)NC(=O)[C@H]([C@@H](C)O)NC(=O)[C@@H]2CSSC[C@@H]3NC(=O)[C@H]([C@@H](C)O)NC(=O)CNC(=O)CNC(=O)[C@H](C(C)C)NC(=O)[C@@H]4CSSC[C@H](NC(=O)[C@H](CCCCN)NC(=O)[C@H](CSSC[C@H](NC(=O)[C@H](C(C)C)NC(=O)[C@@H]5CCCN5C1=O)C(=O)NCC(=O)N[C@@H](CCC(=O)O)C(=O)N[C@@H]([C@@H](C)O)C(=O)N4)NC(=O)CNC(=O)[C@@H]1CCCN1C(=O)[C@H]([C@@H](C)O)NC(=O)[C@H](CC(N)=O)NC3=O)C(=O)N[C@@H](CO)C(=O)N[C@@H](Cc1c[nH]c3ccccc13)C(=O)N1CCC[C@H]1C(=O)N[C@@H](C(C)C)C(=O)N2 | HPLC | ammonium bicarbonate 0.1 M | 180 µM, 14 days, pH 9.0, 37 °C, deamidation stability |  | remaining peptide | 61.3 ± 1.6%
CC(C)[C@@H]1NC(=O)CNC(=O)[C@H](CC(N)=O)NC(=O)[C@H](CCCNC(=N)N)NC(=O)[C@H](Cc2ccc(O)cc2)NC(=O)[C@H](C(C)C)NC(=O)[C@@H](NC(=O)[C@@H](NC(=O)[C@H](CC(N)=O)NC(=O)[C@H](Cc2c[nH]c3ccccc23)NC(=O)[C@H](C)NC(=O)[C@H](Cc2ccccc2)NC(=O)CN)C(C)C)CSSC[C@@H](C(=O)N[C@@H](Cc2cnc[nH]2)C(=O)N[C@@H](CCCNC(=N)N)C(=O)N[C@@H](CCCNC(=N)N)C(=O)N[C@@H](C)C(=O)N[C@@H](CC(N)=O)C(N)=O)NC(=O)[C@H](C(C)C)NC(=O)[C@H](CCCNC(=N)N)NC1=O | HPLC | mouse kidney homogenate | 2560 µM, 4.00 h, 37 °C, 50 mg/mL tissue |  | remaining peptide | 36.9% and 43.9% and 40.5%
CC[C@@H](C)[C@@H](NC(=O)[C@@H](Cc1ccc(O)cc1)NC(=O)[C@H]1CCCN1C(=O)[C@@H](CCCNC(=N)N)NC(=O)[C@H](N)Cc1c[nH]cn1)C(=O)N[C@H](C)C(=O)N[C@H](Cc1c[nH]cn1)C(=O)N[C@H](CCCNC(=N)N)C(=O)N[C@H](CCCCNC(=O)c1cccc(S(=O)(=O)F)c1)C(=O)N[C@H](Cc1ccc(O)cc1)C(=O)N[C@H](CO)C(=O)N[C@H](Cc1ccccc1)C(N)=O |  | 10% human serum | 12 h |  | remaining compound | 107% and 81.6%
CC[C@H](C)[C@H](NC(C)=O)C(=O)N[C@@H](CC(C)C)C(=O)N[C@@H](CCCNC(=N)N)C(=O)N[C@@H](Cc1c[nH]c2ccccc12)C(=O)N[C@@H](CO)C(=O)N[C@@H](CCCNC(=N)N)C(=O)N[C@@H](CCCCN)C(=O)N[C@@H](CC(C)C)C(=O)N1CCC[C@H]1C(=O)N[C@@H](CS)C(=O)N[C@H](C(=O)N[C@@H](CO)C(N)=O)C(C)C | 12G5 competition, SUP-T1 cells | human plasma | 20 µM, 8 h, 37 °C |  | remaining activity | 67 ± 6%
c1ccc([C@@H]2C[C@H]2NC2CCNCC2)cc1 |  | aqueous buffer | 0 days, 37 °C |  | remaining compound | 99%
Cc1ccc2c(c1)C(=O)C1(O)CCN(c3ccccc3)C1=N2 (stereo not drawn) |  | aqueous solution | 24 h, bright light |  | remaining parent compound | 9.3%

Repeated from above:
SMILES | test | test system | conditions | scale | measurement | result
CC[C@@H](C)[C@@H](NC(=O)[C@@H](Cc1ccc(O)cc1)NC(=O)[C@H]1CCCN1C(=O)[C@@H](CCCNC(=N)N)NC(=O)[C@H](N)Cc1c[nH]cn1)C(=O)N[C@H](C)C(=O)N[C@H](Cc1c[nH]cn1)C(=O)N[C@H](CCCNC(=N)N)C(=O)N[C@@H](C(=O)N[C@H](Cc1ccc(O)cc1)C(=O)N[C@H](CO)C(=O)N[C@H](Cc1ccccc1)C(N)=O)C(C)C |  | 10% human serum | 0.5 h |  | remaining compound | 105% and 106%
